{"data": "Published values of several laboratories", "note": "Numbered parts are unrelated; each lists some results of a single study. Positions count from the first letter of the parent shown."}
{"data": "Study 1", "target": "CCNF, cyclin fold, Cln2 fusion (human)", "technique": "yeast growth competition, sequencing", "medium": "yeast", "notes": "strong parent motif", "reference": "not given", "direction": "higher = stronger binding", "starting sequence": "PKMYT1 docking peptide (human); SFEPRNLLSLFED; partner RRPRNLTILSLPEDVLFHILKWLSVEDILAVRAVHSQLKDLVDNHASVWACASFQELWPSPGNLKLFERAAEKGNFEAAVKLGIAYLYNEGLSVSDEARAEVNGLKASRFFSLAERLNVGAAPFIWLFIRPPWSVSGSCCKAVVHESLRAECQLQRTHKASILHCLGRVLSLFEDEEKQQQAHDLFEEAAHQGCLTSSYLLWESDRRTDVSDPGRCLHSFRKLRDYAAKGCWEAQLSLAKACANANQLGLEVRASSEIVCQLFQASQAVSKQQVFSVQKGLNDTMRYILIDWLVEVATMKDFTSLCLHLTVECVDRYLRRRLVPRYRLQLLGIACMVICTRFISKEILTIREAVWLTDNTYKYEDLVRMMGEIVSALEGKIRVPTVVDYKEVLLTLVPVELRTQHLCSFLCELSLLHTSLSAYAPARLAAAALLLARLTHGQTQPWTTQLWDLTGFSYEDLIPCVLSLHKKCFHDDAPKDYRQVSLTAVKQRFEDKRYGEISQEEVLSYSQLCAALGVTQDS"}
{"Substitution": "SAEPRNLLSLFED [F2A]", "normalised enrichment score": -0.118}
{"Substitution": "SFEPRNLLFLFED [S9F]", "normalised enrichment score": 2.65}
{"Substitution": "LFEPRNLLSLFED [S1L]", "normalised enrichment score": 2.04}
{"Substitution": "SFEPRNLLSLFES [D13S]", "normalised enrichment score": 1.58}
{"Substitution": "SFEPRNLLSLFTD [E12T]", "normalised enrichment score": 0.734}
{"Substitution": "SFEPRILLSLFED [N6I]", "normalised enrichment score": -0.301}
{"Substitution": "SFECRNLLSLFED [P4C]", "normalised enrichment score": 0.0627}
{"Substitution": "SFEPRNLLSLFVD [E12V]", "normalised enrichment score": 0.855}
{"Substitution": "SFEPRNLLSLFAD [E12A]", "normalised enrichment score": 0.219}
{"Substitution": "NFEPRNLLSLFED [S1N]", "normalised enrichment score": 2.42}
{"Substitution": "SFEPRNLLSLFEE [D13E]", "normalised enrichment score": 0.721}
{"Substitution": "SFEPRNLLSCFED [L10C]", "normalised enrichment score": 0.47}
{"Substitution": "SFEPRNLLSLFCD [E12C]", "normalised enrichment score": 1.44}
{"Substitution": "SNEPRNLLSLFED [F2N]", "normalised enrichment score": 0.0724}
{"Substitution": "SFEPRNALSLFED [L7A]", "normalised enrichment score": -0.893}
{"Substitution": "SFKPRNLLSLFED [E3K]", "normalised enrichment score": 3.52}
{"data": "Study 2", "target": "ABI1, truncated, D143A, DHFR fusion (Arabidopsis thaliana)", "technique": "DHFR PCA, deep sequencing", "medium": "yeast", "notes": "methotrexate growth selection, single substitutions", "together with": "(+)-ABA 710 µM", "reference": "wild-type fitted maximum", "direction": "higher = stronger binding", "starting sequence": "PYL1, truncated, DHFR fusion (Arabidopsis thaliana); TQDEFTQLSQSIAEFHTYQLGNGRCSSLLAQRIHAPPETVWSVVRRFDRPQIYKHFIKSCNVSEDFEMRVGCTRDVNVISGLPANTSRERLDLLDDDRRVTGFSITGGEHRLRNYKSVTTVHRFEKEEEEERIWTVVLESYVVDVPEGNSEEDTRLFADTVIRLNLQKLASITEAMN"}
{"Substitution": "E130M", "relative binding score [%]": 106}
{"Substitution": "S59C", "relative binding score [%]": 96.8}
{"Substitution": "D75S", "relative binding score [%]": 100}
{"Substitution": "L91G", "relative binding score [%]": -23.5}
{"Substitution": "L28M", "relative binding score [%]": 96.7}
{"Substitution": "E67Q", "relative binding score [%]": 106}
{"Substitution": "I172A", "relative binding score [%]": 88.2}
{"Substitution": "S140M", "relative binding score [%]": 16.9}
{"Substitution": "F124H", "relative binding score [%]": 104}
{"Substitution": "S171T", "relative binding score [%]": 104}
{"Substitution": "P83C", "relative binding score [%]": 69}
{"Substitution": "A84M", "relative binding score [%]": 29.4}
{"Substitution": "N165C", "relative binding score [%]": 26.6}
{"Substitution": "S150T", "relative binding score [%]": 103}
{"Substitution": "Q167R", "relative binding score [%]": 104}
{"Substitution": "V136W", "relative binding score [%]": 96.5}
{"Substitution": "D159I", "relative binding score [%]": 1.36}
{"Substitution": "T119P", "relative binding score [%]": 7.79}
{"Substitution": "A175G", "relative binding score [%]": 104}
{"data": "Study 3", "target": "Prothrombin, mature alpha-thrombin (F2, Homo sapiens, UniProt P00734)", "technique": "aptamer microarray, sandwich", "molecule type": "DNA with 2'F-ANA", "medium": "in vitro", "concentration": "200 nM", "notes": "whole 15-mer aptamer, many near background", "together with": "Cy3 exosite-II aptamer, 400 nM", "direction": "higher = stronger binding", "oligonucleotide": "GGTTGGTGTGGTTGG"}
{"Modification": "2'F-ANA at 1 2 3 7 9 10 11 13", "mean fluorescence intensity [a.u.]": 62.4}
{"Modification": "2'F-ANA at 3 4 5 9 11 12 15", "mean fluorescence intensity [a.u.]": 146}
{"Modification": "2'F-ANA at 4 6 7 12", "mean fluorescence intensity [a.u.]": 576}
{"Modification": "2'F-ANA at 1 2 3 7 12 13 14", "mean fluorescence intensity [a.u.]": 90.1}
{"Modification": "2'F-ANA at 8 12 14 15", "mean fluorescence intensity [a.u.]": 259}
{"Modification": "2'F-ANA at 1 5 6 8 9 12 13 14 15", "mean fluorescence intensity [a.u.]": 46.8}
{"Modification": "2'F-ANA at 1 2 3 4 5 7 8 9 11 13 14 15", "mean fluorescence intensity [a.u.]": 49.2}
{"Modification": "2'F-ANA at 1 3 6 8 11 12 13 15", "mean fluorescence intensity [a.u.]": 452}
{"Modification": "2'F-ANA at 2 6 7 9 10 13", "mean fluorescence intensity [a.u.]": 104}
{"Modification": "2'F-ANA at 4 8 9 12 13", "mean fluorescence intensity [a.u.]": 411}
{"Modification": "2'F-ANA at 1 6 9 11 12 14 15", "mean fluorescence intensity [a.u.]": 104}
{"Modification": "2'F-ANA at 1 2 3 6 7 8 9 10 12 13 14 15", "mean fluorescence intensity [a.u.]": 61.4}
{"Modification": "2'F-ANA at 2 5 6 8 12 13 15", "mean fluorescence intensity [a.u.]": 164}
{"Modification": "2'F-ANA at 1 4 8 9 10 11 12 13", "mean fluorescence intensity [a.u.]": 54.4}
{"Modification": "2'F-ANA at 3 5 6 7 9 10 13 14 15", "mean fluorescence intensity [a.u.]": 58.7}
{"Modification": "2'F-ANA at 1 2 3 4 5 6 7 8 9 14", "mean fluorescence intensity [a.u.]": 46.5}
{"Modification": "2'F-ANA at 3 6 8 9 11 13 14 15", "mean fluorescence intensity [a.u.]": 426}
{"Modification": "2'F-ANA at 1 6 8 9 10 12 13 14", "mean fluorescence intensity [a.u.]": 51.7}
{"Modification": "2'F-ANA at 1 5 6 8 9 15", "mean fluorescence intensity [a.u.]": 80.1}
{"Modification": "2'F-ANA at 1 3 4 5 8 10 11 12 13 15", "mean fluorescence intensity [a.u.]": 48.9}
{"Modification": "2'F-ANA at 3 6 9 10 11 12 15", "mean fluorescence intensity [a.u.]": 424}
{"Modification": "2'F-ANA at 3 5 9 10 13 14", "mean fluorescence intensity [a.u.]": 51.7}
{"Modification": "2'F-ANA at 1 2 4 8 11 12 13 14 15", "mean fluorescence intensity [a.u.]": 62.6}
{"Modification": "2'F-ANA at 1 2 4 6 7 10 11 12", "mean fluorescence intensity [a.u.]": 61.7}
{"Modification": "2'F-ANA at 5 7 9 10 12 15", "mean fluorescence intensity [a.u.]": 52.1}
{"data": "Study 4", "target": "Ras GTPase-activating protein-binding protein 1, full length (G3BP1, Homo sapiens, UniProt Q13283)", "technique": "RNA Bind-n-Seq", "molecule type": "RNA", "medium": "in vitro", "concentration": "200 nM", "notes": "whole 134-nt RNA, ends assumed", "together with": "150 mM LiCl", "reference": "input library", "direction": "higher = stronger binding", "each molecule": "7-deaza-guanosine replaces G", "sequence of UniProt Q13283 (whole entry, looked up)": "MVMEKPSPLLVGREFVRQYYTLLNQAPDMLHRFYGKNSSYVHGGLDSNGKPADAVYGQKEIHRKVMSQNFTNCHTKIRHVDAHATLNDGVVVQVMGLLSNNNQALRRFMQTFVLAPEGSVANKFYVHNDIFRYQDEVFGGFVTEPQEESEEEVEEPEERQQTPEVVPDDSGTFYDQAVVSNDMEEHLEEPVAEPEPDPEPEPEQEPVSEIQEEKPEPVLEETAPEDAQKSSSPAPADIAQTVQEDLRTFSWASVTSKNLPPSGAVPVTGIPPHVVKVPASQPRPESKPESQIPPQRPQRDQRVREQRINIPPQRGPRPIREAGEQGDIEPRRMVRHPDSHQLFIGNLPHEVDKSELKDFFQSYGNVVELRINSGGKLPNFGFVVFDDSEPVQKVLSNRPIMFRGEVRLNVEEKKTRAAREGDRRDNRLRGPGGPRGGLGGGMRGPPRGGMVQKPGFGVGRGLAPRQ"}
{"Oligonucleotide": "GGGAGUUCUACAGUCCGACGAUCUAACUUUAGAGGAGGAUCUGAUGGAUAUGGCAGUGGACGUGGAUUUGGGGAUGGCUAUAAUGGGUAUGGACGAGGACCUGGAGGUGGCAAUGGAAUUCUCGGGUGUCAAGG", "log2 enrichment": -0.107}
{"Oligonucleotide": "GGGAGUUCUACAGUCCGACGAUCAAGUCCUGUGCUACACAUCGUAUGUACCGAAUCGGUUUUUUUGGAAAGGAAAAAGGAAAGUAUUAUGUUACGCCGUUCGGAUCUGCACUUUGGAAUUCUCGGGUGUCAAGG", "log2 enrichment": -1.35}
{"Oligonucleotide": "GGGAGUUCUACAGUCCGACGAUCUCCUGUGCUACACAUCGUAUGUACCGAAUCGGGUUUUUUGGUUUUUUGGUUUUUUGGGGAAAGUAUUAUGUUACGCCGUUCGGAUCUGCAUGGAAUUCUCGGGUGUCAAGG", "log2 enrichment": -0.359}
{"Oligonucleotide": "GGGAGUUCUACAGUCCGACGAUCCCUGUGCUACACAUCGUAUGUACCGAAUCGGGCCCCCCGGGGCCCCCCGGGCCCCCCGGGGAAAGUAUUAUGUUACGCCGUUCGGAUCUGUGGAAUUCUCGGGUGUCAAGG", "log2 enrichment": -2.19}
{"Oligonucleotide": "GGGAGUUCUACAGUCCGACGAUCUGGCCCUGGUGGCAUGCGGGGAGGAAGAGGUGGCCUCAUGGAUCGUGGUGGUCCCGGUGGAAUGUUCAGAGGUGGCCGUGGUAGAGACAGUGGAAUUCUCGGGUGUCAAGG", "log2 enrichment": -0.248}
{"Oligonucleotide": "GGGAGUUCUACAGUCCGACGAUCUGGGAGGUGGAUUUUGUUUAUUUUUUUAGCUCAUUUCCAGGGGUGGGAAUUUUUUUUUAAUAUGUGUCAUGUAUAAAGUUGUUUUUGAAAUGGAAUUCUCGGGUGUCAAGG", "log2 enrichment": 0.0521}
{"Oligonucleotide": "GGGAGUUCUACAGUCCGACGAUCAGUCCUGUGCUACACAUCGUAUGUACCGAAUCGGGUUUUUUUGGGAAAGGGUUUGGGAAAGUAUUAUGUUACGCCGUUCGGAUCUGCACUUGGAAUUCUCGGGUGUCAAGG", "log2 enrichment": -2.1}
{"Oligonucleotide": "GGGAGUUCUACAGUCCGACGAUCGCAGGAAGUAAACACAAAUGGAAAUGCUUCGGAUAGUGGCAGGGGUGGGGGUUGCUAAGGAAAGGGUGGGAUGGGAGUGGGUAAAGAGUUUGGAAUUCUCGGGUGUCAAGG", "log2 enrichment": -0.0756}
{"Oligonucleotide": "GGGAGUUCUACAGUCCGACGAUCUCAAGUCCUGUGCUACACAUCGUAUGUACCGAAUCGGGGCCCGGGCCCGGCCCGGAAAGUAUUAUGUUACGCCGUUCGGAUCUGCACUUCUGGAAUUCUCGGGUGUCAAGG", "log2 enrichment": -0.366}
{"Oligonucleotide": "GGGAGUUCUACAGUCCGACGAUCUAUGAGGAUGAGUUGGUGCCCCUUUUUGAGAAGGCCGGACCCAUUUGGGAUCUACGUCUUAUGAUGGAUCCACUGUCCGGUCAGAAUAGAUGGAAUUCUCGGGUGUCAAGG", "log2 enrichment": 0.989}
{"Oligonucleotide": "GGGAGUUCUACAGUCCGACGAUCCUCAAGUCCUGUGCUACACAUCGUAUGUACCGAAUCGGGGUGGUGGGGUGGGGAAAGUAUUAUGUUACGCCGUUCGGAUCUGCACUUCCAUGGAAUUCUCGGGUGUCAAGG", "log2 enrichment": -0.677}
